Published values of several laboratories.
Values joined by “and” are separate records of one study, mostly repeats; a detail may differ. ± marks the error that the study gave.
B1: enzyme (Arabidopsis thaliana, UniProt Q9C969); chain GSFGMLSRRTLGTDMPVMAQIRSLMAELTNPMSLAQGVVHWQPPQKALEKVKELVWDPIISSYGPDEGLPELRQALLKKLREENKLTNSQVMVTAGANQAFVNLVITLCDAGDSVVMFEPYYFNSYMAFQMTGVTNIIVGPGQSDTLYPDADWLERTLSESKPTPKVVTVVNPGNPSGTYVPEPLLKRIAQICKDAGCWLIVDNTYEYFMYDGLKHCCVEGDHIVNVFSFSKTYGMMGWRLGYIAYSERLDGFATELVKIQDNIPICAAIISQRLAVYALEEGSGWITERVKSLVKNRDIVKEALEPLGKENVKGGEGAIYLWAKLPEGHRDDFKVVRWLAHRHGVVVIPGCASGSPGYLRVSFGGLQEVEMRAAAARLRKGIEELLHHGMVE
B2: spt (Sphingomonas paucimobilis, UniProt Q93UV0); chain TEAAAQPHALPADAPDIAPERDLLSKFDGLIAERQKLLDSGVTDPFAIVMEQVKSPTEAVIRGKDTILLGTYNYMGMTFDPDVIAAGKEALEKFGSGTNGSRMLNGTFHDHMEVEQALRDFYGTTGAIVFSTGYMANLGIISTLAGKGEYVILDADSHASIYDGCQQGNAEIVRFRHNSVEDLDKRLGRLPKEPAKLVVLEGVYSMLGDIAPLKEMVAVAKKHGAMVLVDEAHSMGFFGPNGRGVYEAQGLEGQIDFVVGTFSKSVGTVGGFVVSNHPKFEAVRLACRPYIFTASLPPSVVATATTSIRKLMTAHEKRERLWSNARALHGGLKAMGFRLGTETCDSAIVAVMLEDQEQAAMMWQALLDGGLYVNMARPPATPAGTFLLRCSICAEHTPAQIQTVLGMFQAAGRAVGVIG
B3: enzyme (Caenorhabditis elegans, UniProt Q86D21); chain MSKAPTDMAPWPAFIEERIKLWDKLKAEYDAEIAAKESEPIQITLPDGKIHEGKTWRTTPFEIAERISKGLAEAAVIAKVNGAVWDLDRPFEGNAKLELLKFDDDEAKQVFWHSSAHVLGEAMERYCGGHLCYGPPIQEGFYYDMWHENRTICPDDFPKIDQIVKAAVKDKQKFERLEMTKEDLLEMFKYNEFKVRIITEKIHTPKTTVYRCGPLIDLCRGPHVRHTGKVKAMAITKNSSSYWEGKADAESLQRLYGISFPDSKQLKEWQKLQEEAAKRDHRKLGKEHDLFFFHQLSPGSAFWYPKGAHIYNKLVDFIRKQYRRRGFTEVITPNMYNKKLWETSGHWQHYSEDMFKIEVEKEEFGLKPMNCPGHCLMFGHMPHTYNELPFRFADFGVLHRNEMSGALTGLTRVRRFQQDDAHIFCRQDQISEEIKQCLDFLEYAYEKVFGFTFKLNLSTRPEGFLGNIETWDKAEADLTNALNASGRKWVLNPGDGAFYGPKIDITIQDALKRNFQCATIQLDFQLPNQFDLSYFDEKGEKQRPVMIHRAVLGSVERMTAILTESYGGKWPFWLSPRQCKIITVHESVRDYANDVKKQIFEAGFEIEYEENCGDTMNKQVRKAQLAQFNFILVIGAKEKENGTVNVRTRDNAVRGEVALDKLISKFRRFADEYVADTEKSEEWA
B4: enzyme S252E (Schizosaccharomyces pombe, UniProt P78804); chain MSTPYEPEFQQAYKEIVGSIESSKLFEVHPELKRVLPIISIPERVLEFRVTWEDDKGNCRVNTGYRVQFNSALGPYKGGLRFHPSVNLSILKFLGFEQIFKNALTGLPMGGGKGGSDFDPKGKSDNEIRRFSQAFMRQLFRYIGPQTDVPAGDIGVTGFVVMHMFGEYKRLRNEYSGVVTGKHMLTGGSNIRPEATGYGVVYYVKHMIEHRTKGAETLKGKRVAISGSGNVAQYAALKCIQEGAIVKSISDEKGVLIAKTAEGLVPEEIHEIMALKEKRASIADSASLCKKHHYIAGARPWTNVGEIDIALPCATQNEVSGEEAAALIKQGCRYVAEGSNMGSSAEAVEVFEKSRASGEGCWLAPGKAANAGGVAVSGLEMAQNAQFSTWTHAEVDAKLAGIMQNIFEQSTDVASKYCDSGSNNIPSLVDGANIAGFLKVATAMQAVGDWW
B5: gdh (Bacillus subtilis, UniProt P12310); chain MYPDLKGKVVAITGAASGLGKAMAIRFGKEQAKVVINYYSNKQDPNEVKEEVIKAGGEAVVVQGDVTKEEDVKNIVQTAIKEFGTLDIMINNAGLENPVPSHEMPLKDWDKVIGTNLTGAFLGSREAIKYFVENDIKGNVINMSSVHEVIPWPLFVHYAASKGGIKLMTETLALEYAPKGIRVNNIGPGAINTPINAEKFADPKQKADVESMIPMGYIGEPEEIAAVAAWLASKEASYVTGITLFADGGMTQYPSFQAGRG
B6: enzyme (Kluyveromyces lactis, UniProt Q6CSZ6); chain MSSLDINEQRALIKSAHRYISEKLEDHFSSEFLPKALVICGSGLSGISTKIADEPKPLILSYSTIPGFKVSTVPGHSGELIFGYMNGAPVVLMNGRLHSYEGHSLAETVHPIRALHLLGSINVLIVTNAAGGINASFKAGDLMCVYDHINFPGLCGFHPLRGANFDEFGPRFLATSDAYDLELRKLLFSKKKELNIERKIHEGTYSYVHGPTFESRAESRFLRLAGTDAVGMSTVPEVVTARHCGWRVLALSLITNECVVDPPASAHDENPVPIQEGKATHEEVLENSAKASKDVQELIFSVVAEI
B7: enzyme Y136L/Y168I (Bradyrhizobium diazoefficiens, UniProt Q45222); chain MIQTERAVQQVLEWGRSLTGFADEHAVEAVRGGQYILQRIHPSLRGTSARTGRDPQDETLIVTFYRELALLFWLDDCNDLGLISPEQLAAVEQALGQGVPCALPGFEGCAVLRASLATLAYDRRDYAQLLDDTRCLSAALRAGHAQAVAAERWSYAEYLHNGIDSIAIANVFCCLSLLWGLDMATLRARPAFRQVLRLISAIGRLQNDLHGCDKDRSAGEADNAVILLLQRYPAMPVVEFLNDELAGHTRMLHRVMAEERFPAPWGPLIEAMAAIRVQYYRTSTSRYRSDAVRGGQRAPA
B8: human CCDC6; sequence looked up; chain ADSASESDTDGAGGNSSSSAAMQSSCSSTSGGGGGGGGGGGGGKSGGIVISPFRLEELTNRLASLQQENKVLKIELETYKLKCKALQEENRDLRKASVTIQARAEQEEEFISNTLFKKIQALQKEKETLAVNYEKEEEFLTNELSRKLMQLQHEKAELEQHLEQEQEFQVNKLMKKIKKLENDTISKQLTLEQLRREKIDLENTLEQEQEALVNRLWKRMDKLEAEKRILQEKLDQPVSAPPSPRDISMEIDSPENMMRHIRFLKNEVERLKKQLRAAQLQHSEKMAQYLEEERHMREENLRLQRKLQREMERREALCRQLSESESSLEMDDERYFNEMSAQGLRPRTVSSPIPYTPSPSSSRPISPGLSYASHTVGFTPPTSLTRAGMSYYNSPGLHVQHMGTSHGITRPSPRRSNSPDKFKRPTPPPSPNTQTPVQPPPPPPPPPMQPTVPSAATSQPTPSQHSAHPSSQP
B9: enzyme (Mus musculus, UniProt P60334); chain MERTELLKPRTLADLIRILHELFAGDEVNVEEVQAVLEAYESNPAEWALYAKFDQYRYTRNLVDQGNGKFNLMILCWGEGHGSSIHDHTDSHCFLKLLQGNLKETLFDWPDKKSNEMIKKSERTLRENQCAYINDSIGLHRVENVSHTEPAVSLHLYSPPFDTCHAFDQRTGHKNKVTMTFHSKFGIRTPFTTSGSLENN

Molecule	tested on	test	system	conditions	scale	endpoint	value
enzyme (Acinetobacter baumannii, UniProt A0A5P1UDB1)	O=C(O)c1cccc(O)c1O	steady-state kinetics	–	pH 7.5, 37 °C, apparent	–	kcat/Km	946 M⁻¹ s⁻¹
B1 (enzyme)	O=C(O)C(=O)Cc1ccc(O)cc1	steady-state kinetics	–	–	–	kcat/Km	26800 M⁻¹ s⁻¹ and 54700 M⁻¹ s⁻¹ and 29000 M⁻¹ s⁻¹
enzyme (Parabacteroides distasonis, UniProt A0A7L5EB83)	CC(=O)N[C@H]1[C@H](Oc2ccc([N+](=O)[O-])cc2)O[C@H](CO)[C@@H](O)[C@@H]1O[C@@H]1O[C@H](CO)[C@H](O)[C@H](O)[C@H]1O	steady-state kinetics	–	pH 6, 50 °C	–	kcat/Km	2120 M⁻¹ s⁻¹
enzyme K46A (Homo sapiens, UniProt Q08623)	O=c1[nH]cc([C@@H]2O[C@H](COP(=O)(O)O)[C@@H](O)[C@H]2O)c(=O)[nH]1	steady-state kinetics	–	pH 7, 25 °C	–	kcat/Km	11200 M⁻¹ s⁻¹
enzyme (Methanosarcina mazei, UniProt Q8PVB1)	Nc1ncnc2c1ncn2[C@@H]1O[C@H](COP(=O)(O)OP(=O)(O)OP(=O)(O)O)[C@@H](O)[C@H]1O	steady-state kinetics	–	pH 8.5, 25 °C, apparent, anoxic, with: L-Thr 10 mM	–	kcat/Km	410 ± 150 M⁻¹ s⁻¹
B2 (spt)	CCCCCCCCCCCCCC(=O)SCCNC(=O)CCNC(=O)[C@H](O)C(C)(C)COP(=O)(O)OP(=O)(O)OC[C@H]1O[C@@H](n2cnc3c(N)ncnc32)[C@H](O)[C@@H]1OP(=O)(O)O	steady-state kinetics	–	with: PLP	–	kcat/Km	9500 M⁻¹ s⁻¹
B3 (enzyme)	C[C@@H](O)[C@H](N)C(=O)O	steady-state kinetics	–	pH 7.5, 37 °C, with: ATP	–	kcat/Km	730 M⁻¹ s⁻¹
TACTTGAAGTTGACAATATTATTTAAGGACCTATTTCAAGTCAATCGGTCC (dsDNA; 5'-amino-C6 primer)	SPT15 full length assumed (Saccharomyces cerevisiae, UniProt P13393)	array	double-stranded DNA, one strand shown	TBP alone	–	Kd	25.4 ± 5.21 nM
SSRP1 (human)	CYB5R4 knockout human cells	PP4 interaction, 3xFLAG-PP4C IP-MS	–	concentration not given	baseline: CYB5R4 KO over parental	log2 fold change	-0.18
B4 (enzyme S252E)	NC(=O)C1=CN([C@@H]2O[C@H](COP(=O)(O)OP(=O)(O)OC[C@H]3O[C@@H](n4cnc5c(N)ncnc54)[C@H](O)[C@@H]3O)[C@@H](O)[C@H]2O)C=CC1	steady-state kinetics	–	pH 7, 30 °C, apparent	–	kcat/Km	8600 ± 700 M⁻¹ s⁻¹
B5 (gdh)	NC(=O)c1ccc[n+]([C@@H]2O[C@H](COP(=O)(O)OP(=O)(O)OC[C@H]3O[C@@H](n4cnc5c(N)ncnc54)[C@H](O)[C@@H]3O)[C@@H](O)[C@H]2O)c1	steady-state kinetics	–	pH 8, 50 °C	–	kcat/Km	6670 ± 333 M⁻¹ s⁻¹
enzyme (Pseudomonas aeruginosa, UniProt Q9I6F6)	N[C@H](COP(=O)(O)O)Cc1c[nH]cn1	steady-state kinetics	–	pH 7.8, 25 °C	–	kcat/Km	390000 ± 20000 M⁻¹ s⁻¹
bglA (Acetivibrio thermocellus, UniProt P26208)	O=[N+]([O-])c1ccc(O[C@@H]2O[C@H](CO)[C@@H](O)[C@H](O)[C@H]2O)cc1	steady-state kinetics	–	pH 5.5, 60 °C	–	kcat/Km	140000 ± 13000 M⁻¹ s⁻¹
bxlB (Aspergillus nidulans, UniProt Q5ATH9)	O=[N+]([O-])c1ccc(O[C@@H]2OC[C@@H](O)[C@H](O)[C@H]2O)cc1	steady-state kinetics	–	pH 5, 50 °C	–	kcat/Km	15700 M⁻¹ s⁻¹
B6 (enzyme)	OC[C@H]1O[C@@H](n2cnc3c(O)ncnc32)[C@H](O)[C@@H]1O	steady-state kinetics	–	–	–	kcat/Km	170000 M⁻¹ s⁻¹
CAAAUAUUC (ssRNA)	U2AF2 148-342 (Homo sapiens, UniProt P26368)	sequencing of bound RNA	RNA	motif only	–	Kd	1600 nM
B7 (enzyme Y136L/Y168I)	C=C1CC[C@@H]2C(C)(C)CCC[C@@]2(C)[C@@H]1CC/C(C)=C/COP(=O)(O)OP(=O)(O)O	steady-state kinetics	–	–	–	kcat/Km	31000 M⁻¹ s⁻¹
B8 (human CCDC6)	CYB5R4 knockout human cells	PP4 interaction, 3xFLAG-PP4C IP-MS	–	concentration not given	baseline: CYB5R4 KO over parental	log2 fold change	-5.61
B9 (enzyme)	N[C@@H](CS)C(=O)O	steady-state kinetics	–	pH 7.5, 37 °C	–	kcat/Km	180 M⁻¹ s⁻¹

Excerpt of the above:
Molecule	tested on	test	system	conditions	scale	endpoint	value
B8 (human CCDC6)	CYB5R4 knockout human cells	PP4 interaction, 3xFLAG-PP4C IP-MS	–	concentration not given	baseline: CYB5R4 KO over parental	log2 fold change	-5.61
B9 (enzyme)	N[C@@H](CS)C(=O)O	steady-state kinetics	–	pH 7.5, 37 °C	–	kcat/Km	180 M⁻¹ s⁻¹
